Published values collected from several papers.
Lines come from different studies, so protocols differ. Values joined by “and” are separate records of one study, mostly repeats; a detail may differ. ± marks the error that the study gave.
Chain of UniProt O43614 (whole entry, unmodified, looked up): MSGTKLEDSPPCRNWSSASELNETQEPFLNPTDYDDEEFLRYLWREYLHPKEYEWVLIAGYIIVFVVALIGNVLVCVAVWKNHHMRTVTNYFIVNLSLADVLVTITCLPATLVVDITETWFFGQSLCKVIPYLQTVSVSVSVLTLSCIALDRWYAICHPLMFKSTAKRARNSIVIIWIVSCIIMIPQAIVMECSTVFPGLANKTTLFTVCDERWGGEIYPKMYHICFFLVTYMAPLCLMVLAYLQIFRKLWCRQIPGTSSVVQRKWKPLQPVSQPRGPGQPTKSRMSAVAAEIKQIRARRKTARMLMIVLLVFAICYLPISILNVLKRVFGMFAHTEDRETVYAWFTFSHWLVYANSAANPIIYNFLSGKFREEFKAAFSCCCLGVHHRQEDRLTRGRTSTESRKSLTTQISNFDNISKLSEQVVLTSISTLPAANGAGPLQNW
Chain of UniProt Q01959 (whole entry, looked up): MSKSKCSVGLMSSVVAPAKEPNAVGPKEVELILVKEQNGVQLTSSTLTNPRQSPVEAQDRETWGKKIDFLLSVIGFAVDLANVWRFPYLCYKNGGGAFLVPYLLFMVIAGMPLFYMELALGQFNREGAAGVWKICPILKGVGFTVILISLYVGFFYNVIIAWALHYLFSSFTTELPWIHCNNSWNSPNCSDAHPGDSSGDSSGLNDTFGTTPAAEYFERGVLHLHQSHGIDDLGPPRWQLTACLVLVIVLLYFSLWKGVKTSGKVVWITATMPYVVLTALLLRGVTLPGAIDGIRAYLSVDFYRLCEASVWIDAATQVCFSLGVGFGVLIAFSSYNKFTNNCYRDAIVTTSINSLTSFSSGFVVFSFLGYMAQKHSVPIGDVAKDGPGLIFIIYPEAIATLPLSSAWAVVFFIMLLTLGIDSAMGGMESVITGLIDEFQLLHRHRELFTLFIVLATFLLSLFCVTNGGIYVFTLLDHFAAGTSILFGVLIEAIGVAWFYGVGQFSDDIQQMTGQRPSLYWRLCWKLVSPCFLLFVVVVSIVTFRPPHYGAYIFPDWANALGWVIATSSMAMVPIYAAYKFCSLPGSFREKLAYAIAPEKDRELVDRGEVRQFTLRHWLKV
Chain of UniProt Q5ANA3 (whole entry, looked up): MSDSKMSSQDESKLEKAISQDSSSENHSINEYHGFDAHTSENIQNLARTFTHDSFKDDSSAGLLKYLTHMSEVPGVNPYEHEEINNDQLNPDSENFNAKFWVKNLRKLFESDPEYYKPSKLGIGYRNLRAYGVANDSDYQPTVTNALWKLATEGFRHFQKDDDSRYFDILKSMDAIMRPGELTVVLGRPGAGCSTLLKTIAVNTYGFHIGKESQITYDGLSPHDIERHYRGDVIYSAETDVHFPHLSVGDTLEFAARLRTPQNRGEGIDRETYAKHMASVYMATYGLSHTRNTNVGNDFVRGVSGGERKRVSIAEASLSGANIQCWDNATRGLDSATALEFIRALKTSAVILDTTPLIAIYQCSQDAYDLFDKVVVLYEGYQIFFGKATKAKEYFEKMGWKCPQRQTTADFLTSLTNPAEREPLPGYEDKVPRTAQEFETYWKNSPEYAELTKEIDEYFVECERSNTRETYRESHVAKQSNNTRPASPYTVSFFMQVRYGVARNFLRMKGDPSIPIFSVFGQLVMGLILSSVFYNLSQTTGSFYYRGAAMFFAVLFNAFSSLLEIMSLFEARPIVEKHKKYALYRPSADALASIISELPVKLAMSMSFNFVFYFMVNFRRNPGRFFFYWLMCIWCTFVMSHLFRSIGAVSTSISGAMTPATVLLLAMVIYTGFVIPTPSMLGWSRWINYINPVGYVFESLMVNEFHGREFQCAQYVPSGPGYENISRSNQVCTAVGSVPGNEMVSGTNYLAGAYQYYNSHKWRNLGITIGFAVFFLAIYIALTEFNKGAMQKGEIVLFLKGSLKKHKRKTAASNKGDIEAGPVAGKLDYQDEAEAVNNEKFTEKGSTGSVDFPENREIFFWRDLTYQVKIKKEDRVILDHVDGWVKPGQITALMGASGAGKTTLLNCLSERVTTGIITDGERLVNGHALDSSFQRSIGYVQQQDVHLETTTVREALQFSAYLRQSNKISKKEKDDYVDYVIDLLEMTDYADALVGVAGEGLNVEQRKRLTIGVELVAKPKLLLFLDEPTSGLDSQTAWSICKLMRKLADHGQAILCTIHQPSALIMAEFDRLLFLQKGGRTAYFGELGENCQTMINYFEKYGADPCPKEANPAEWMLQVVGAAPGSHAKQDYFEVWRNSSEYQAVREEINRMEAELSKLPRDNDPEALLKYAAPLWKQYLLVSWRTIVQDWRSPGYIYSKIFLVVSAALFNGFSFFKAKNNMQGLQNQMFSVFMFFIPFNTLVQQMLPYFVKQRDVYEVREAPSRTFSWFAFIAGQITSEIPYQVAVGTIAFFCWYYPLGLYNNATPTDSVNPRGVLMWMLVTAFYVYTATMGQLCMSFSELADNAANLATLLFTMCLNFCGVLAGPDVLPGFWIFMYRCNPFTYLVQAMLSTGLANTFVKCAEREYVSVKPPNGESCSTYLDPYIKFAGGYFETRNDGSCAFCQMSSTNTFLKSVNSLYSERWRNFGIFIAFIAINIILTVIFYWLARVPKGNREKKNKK
Chain of UniProt P34903 (whole entry, looked up): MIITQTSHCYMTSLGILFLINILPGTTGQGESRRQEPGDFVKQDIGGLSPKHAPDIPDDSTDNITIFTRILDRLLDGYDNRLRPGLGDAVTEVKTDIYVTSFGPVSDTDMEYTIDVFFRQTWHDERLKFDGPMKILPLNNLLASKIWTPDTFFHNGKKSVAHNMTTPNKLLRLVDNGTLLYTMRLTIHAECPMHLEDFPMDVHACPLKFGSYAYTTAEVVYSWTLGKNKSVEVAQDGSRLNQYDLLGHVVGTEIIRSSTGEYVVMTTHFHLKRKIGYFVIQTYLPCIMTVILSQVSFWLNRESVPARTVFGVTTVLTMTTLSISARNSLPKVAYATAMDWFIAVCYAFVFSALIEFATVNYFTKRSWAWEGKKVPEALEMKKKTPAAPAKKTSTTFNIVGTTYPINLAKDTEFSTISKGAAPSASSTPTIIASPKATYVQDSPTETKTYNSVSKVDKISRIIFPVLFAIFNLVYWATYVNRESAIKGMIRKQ
Chain of UniProt Q86SM5 (whole entry, looked up): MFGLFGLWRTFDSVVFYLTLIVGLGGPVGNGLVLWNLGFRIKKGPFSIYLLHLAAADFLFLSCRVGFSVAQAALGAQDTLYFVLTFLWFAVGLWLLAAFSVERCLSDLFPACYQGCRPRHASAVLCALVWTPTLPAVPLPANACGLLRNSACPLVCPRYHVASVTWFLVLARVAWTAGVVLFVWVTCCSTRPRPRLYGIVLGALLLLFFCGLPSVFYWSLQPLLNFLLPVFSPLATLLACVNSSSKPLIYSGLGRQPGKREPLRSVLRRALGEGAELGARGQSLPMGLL
Chain of UniProt P14416 (whole entry, looked up): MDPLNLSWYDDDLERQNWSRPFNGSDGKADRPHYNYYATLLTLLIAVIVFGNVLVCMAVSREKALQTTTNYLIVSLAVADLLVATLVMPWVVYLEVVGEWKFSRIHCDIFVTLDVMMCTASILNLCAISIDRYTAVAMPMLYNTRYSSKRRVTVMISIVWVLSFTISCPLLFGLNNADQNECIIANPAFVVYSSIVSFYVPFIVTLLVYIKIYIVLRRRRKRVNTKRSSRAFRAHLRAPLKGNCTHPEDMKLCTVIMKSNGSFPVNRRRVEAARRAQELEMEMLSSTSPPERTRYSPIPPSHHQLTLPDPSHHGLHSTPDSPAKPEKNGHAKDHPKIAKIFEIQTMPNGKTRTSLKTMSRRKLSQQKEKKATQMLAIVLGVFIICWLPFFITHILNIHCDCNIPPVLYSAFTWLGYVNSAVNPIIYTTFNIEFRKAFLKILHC
Chain of UniProt P28329 (whole entry, looked up): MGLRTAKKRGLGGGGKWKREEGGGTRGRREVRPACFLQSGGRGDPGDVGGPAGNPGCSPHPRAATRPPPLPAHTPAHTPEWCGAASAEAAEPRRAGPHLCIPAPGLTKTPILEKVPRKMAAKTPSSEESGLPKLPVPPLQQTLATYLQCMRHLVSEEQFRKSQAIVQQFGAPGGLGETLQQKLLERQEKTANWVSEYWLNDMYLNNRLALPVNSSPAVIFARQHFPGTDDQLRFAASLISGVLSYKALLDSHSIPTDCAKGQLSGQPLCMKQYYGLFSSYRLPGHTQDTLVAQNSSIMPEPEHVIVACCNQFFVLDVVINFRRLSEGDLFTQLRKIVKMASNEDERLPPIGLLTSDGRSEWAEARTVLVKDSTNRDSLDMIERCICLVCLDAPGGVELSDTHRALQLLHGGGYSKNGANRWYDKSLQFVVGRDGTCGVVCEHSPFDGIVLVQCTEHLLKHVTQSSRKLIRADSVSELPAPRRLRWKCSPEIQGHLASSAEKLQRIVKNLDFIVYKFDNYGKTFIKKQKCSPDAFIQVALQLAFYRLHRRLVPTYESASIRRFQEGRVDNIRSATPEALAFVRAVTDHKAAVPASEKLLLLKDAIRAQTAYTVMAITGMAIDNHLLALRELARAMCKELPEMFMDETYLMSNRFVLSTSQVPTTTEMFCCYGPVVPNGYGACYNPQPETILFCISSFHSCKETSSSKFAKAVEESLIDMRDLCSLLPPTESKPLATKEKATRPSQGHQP
Chain of UniProt P08173 (whole entry, looked up): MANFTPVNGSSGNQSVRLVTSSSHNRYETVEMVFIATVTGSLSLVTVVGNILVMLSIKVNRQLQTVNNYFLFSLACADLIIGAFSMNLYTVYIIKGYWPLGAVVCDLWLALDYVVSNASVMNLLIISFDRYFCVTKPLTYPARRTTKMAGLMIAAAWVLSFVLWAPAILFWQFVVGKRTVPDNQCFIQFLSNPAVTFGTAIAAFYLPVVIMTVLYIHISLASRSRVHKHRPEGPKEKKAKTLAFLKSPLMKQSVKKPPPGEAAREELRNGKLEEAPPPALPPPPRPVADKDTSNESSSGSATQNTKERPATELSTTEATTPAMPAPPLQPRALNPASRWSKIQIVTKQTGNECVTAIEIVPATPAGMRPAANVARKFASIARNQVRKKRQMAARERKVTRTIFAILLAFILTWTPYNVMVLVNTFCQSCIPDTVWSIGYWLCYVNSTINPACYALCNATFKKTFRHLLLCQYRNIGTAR

| Compound | tested on | test | test system | setting | scale | quantity | result |
| --- | --- | --- | --- | --- | --- | --- | --- |
| CNC1(c2ccccc2Cl)CCCCC1=O (racemic) | DRD2 (Homo sapiens, UniProt P14416) | radioligand binding, antagonist, radioligand displacement | – | 30 µM, short isoform | – | inhibition | 4% |
| c1ccc2cc([C@]34CNC[C@H]3C4)ccc2c1 | SLC6A3 (Homo sapiens, UniProt Q01959) | inhibitor, [3H]dopamine uptake | – | 10 nM | relative to: no inhibitor | dopamine uptake | 77.4% and 93.7% and 125% |
| C=CCN1CC[C@]23c4c5ccc(O)c4O[C@H]2C(=O)CC[C@]3(O)[C@H]1C5 | Choline O-acetyltransferase (Homo sapiens, UniProt P28329) | – | – | concentration not given | – | inhibition | 4% |
| CNC(=O)[C@@H](c1ccccc1)N1CCc2cc(OC)c(OC)cc2[C@@H]1CCc1ccc(C(F)(F)F)cc1 | HCRTR2 (Homo sapiens, UniProt O43614, del254-292/I293E/K294R/L160H/M161K/Q254E) | fluorescence sensor response, fluorescence | – | concentration not given | – | normalised fluorescence response | -0.95 and -0.62 and -1.2 and 2.92 and 0.819 and 1.09 and -1.02 |
| CN(C(=O)n1cnc(-c2ccc[n+]([O-])c2)c1)C1CCCCC1 | BDKRB2 (Homo sapiens, UniProt P30411) | radioligand binding | – | 50 µM, added: [3H]bradykinin | – | inhibition | 1% |
| Clc1cc(Cl)cc(N2CCNCC2)c1 | CHRM4 (Homo sapiens, UniProt P08173) | ERK1/2 phosphorylation, agonist | CHO cells | – | – | Emax | < 10% |
| COc1ccc(N2C(=O)N(c3c(C)cccc3Cl)Cc3cnc(Nc4ccc(C5CCN(C)CC5)cc4OC)nc32)nc1 | CSNK2A2 (Homo sapiens, UniProt P19784) | kinase activity, inhibitor | – | 0.5 µM, CK2A2 | – | inhibition | -10% |
| O=c1[nH]c2nc(-c3ccccc3)sc2c(=O)n1O | Ketol-acid reductoisomerase (NADP(+)) (ilvC, Mycobacterium tuberculosis, UniProt P9WKJ7) | slow-binding inhibitor | – | no pre-incubation | – | koff | 1.9e-05 s⁻¹ |
| Brc1ccc2c(c1)C(c1ccccn1)=NCc1c(-c3cnco3)ncn1-2 | GABRG2/GABRA3, with β3 subunit (Homo sapiens, UniProt P18507+P34903) | [3H]flunitrazepam binding | – | – | relative to: α3β3γ2 over α1β3γ2 GABA-A | selectivity ratio | 1.62 |
| COc1ccc(CN(C(=O)[C@@H](N)Cc2c(C)cc(C(N)=O)cc2C)[C@@H](C)c2ncc(-c3ccccc3)[nH]2)cc1C(=O)O | Cholinesterase (BCHE, Homo sapiens, UniProt P06276) | – | – | concentration not given, Triton | – | efficacy | -77.8 ± 18.9% |
| C[C@]12CCC(=O)C=C1CC[C@@H]1[C@@H]2CC[C@]2(C)C(=O)CC[C@@H]12 | Aromatase (CYP19A1, Homo sapiens, UniProt P11511) | – | – | – | – | association rate constant | 1.1e+07 M⁻¹ s⁻¹ |
| C[C@H]1CN(c2n[nH]c3nc(N[C@H]4CC[C@H](NS(=O)(=O)CCC(F)(F)F)CC4)ncc23)CCO1 | HDAC1 (Homo sapiens, UniProt Q13547) | biochemical | – | – | – | IC50 | ≥ 20 µM |
| CCC(=O)N1CCN(C(=O)c2ccccc2)CC1 | Plasmodium falciparum | – | W2 | – | – | IC50 | 3.98 µM |
| OC(Cn1cncn1)(Cn1cncn1)c1ccc(F)cc1F | CDR1 (Candida albicans, UniProt Q5ANA3) | ATPase activity, malachite green | – | 4 µM | relative to: no drug | remaining activity | 82.1% and 82.2% |
| NCC(=O)NCCC(c1ccccc1)c1ccccc1 | Plasmodium falciparum | – | GB4 | – | – | IC50 | 1.58 µM |
| Oc1ccc2c3c1O[C@H]1[C@@H](O)CC[C@@]4(O)[C@@H](C2)N(CC2CCC2)CC[C@]314 | Mas-related G-protein coupled receptor member G (MRGPRG, Homo sapiens, UniProt Q86SM5) | β-arrestin recruitment, TANGO luminescence, measured: MRGPRG | – | concentration not given | relative to: basal luminescence | log2 fold change | 0.279 |

Excerpt of the above:
| Compound | tested on | test | test system | setting | scale | quantity | result |
| --- | --- | --- | --- | --- | --- | --- | --- |
| COc1ccc(CN(C(=O)[C@@H](N)Cc2c(C)cc(C(N)=O)cc2C)[C@@H](C)c2ncc(-c3ccccc3)[nH]2)cc1C(=O)O | Cholinesterase (BCHE, Homo sapiens, UniProt P06276) | – | – | concentration not given, Triton | – | efficacy | -77.8 ± 18.9% |
| C[C@]12CCC(=O)C=C1CC[C@@H]1[C@@H]2CC[C@]2(C)C(=O)CC[C@@H]12 | Aromatase (CYP19A1, Homo sapiens, UniProt P11511) | – | – | – | – | association rate constant | 1.1e+07 M⁻¹ s⁻¹ |
